Results gathered from unrelated publications.
Numbered parts are unrelated; each lists some results of a single study.

Block 1 — method: protein binding microarray; form: double-stranded DNA, one strand shown; medium: in vitro; tested at: not given; baseline: not given; direction: higher = stronger binding
Target: Histone acetyltransferase KAT6A, winged helix 1, GST fusion (KAT6A, Homo sapiens, UniProt Q92794, residues 1-85)
Notes: 8-mer, flanks averaged, mean of 2 arrays, mostly near background
Target sequence (chain): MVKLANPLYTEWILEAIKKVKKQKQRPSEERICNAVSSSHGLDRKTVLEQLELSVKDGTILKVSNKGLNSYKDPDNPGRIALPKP
The E-score of `ATAGTTCA` is reported as 0.0164.
With `ATTTCCCC` the E-score was 0.0177.
`AAGCCGAA` has an E-score of -0.0116.
With `ACTGTTCG` the E-score was -0.145.

Block 2 — method: competition protein-binding microarray; form: double-stranded DNA, one strand shown; medium: in vitro; tested at: 2 µM; together with: Pho4 competitor, 0.05 µM; direction: higher = stronger binding
Target: Centromere-binding protein 1, full length, His-tagged (CBF1, Saccharomyces cerevisiae, UniProt P17106, residues 1-351)
Chain of UniProt P17106 (whole entry, looked up): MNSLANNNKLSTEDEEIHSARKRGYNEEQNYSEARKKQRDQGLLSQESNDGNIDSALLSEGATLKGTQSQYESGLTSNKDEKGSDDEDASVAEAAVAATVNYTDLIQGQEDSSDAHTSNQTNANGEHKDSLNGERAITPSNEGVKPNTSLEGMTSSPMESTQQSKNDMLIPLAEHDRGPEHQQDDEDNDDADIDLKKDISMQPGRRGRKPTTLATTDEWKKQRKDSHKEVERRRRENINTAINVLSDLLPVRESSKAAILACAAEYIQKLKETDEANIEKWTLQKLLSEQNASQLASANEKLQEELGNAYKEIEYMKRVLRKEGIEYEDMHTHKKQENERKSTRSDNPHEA
Notes: whole 60-bp probe, lowest competitor level
With `TGGAATGTATACCTGCACACGCTTGGTAAGGCCAACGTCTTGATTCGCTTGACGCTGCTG` the fluorescence intensity was 69.7 a.u.
`CGGGGTTAAGTTTAGCACGTGTTTTGCTTGCAGCAGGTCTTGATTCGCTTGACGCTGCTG` has a fluorescence intensity of 1690 a.u.
With `GTCTTGTCTCATTGTCACAACACTTTCCCCACTTCAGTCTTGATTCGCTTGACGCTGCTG` the fluorescence intensity was 117 a.u.
The fluorescence intensity of `AAAGCGGTAATTTTTCACGTGGGATCAAATATCTATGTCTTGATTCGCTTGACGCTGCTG` is reported as 1150 a.u.
`CGAAACATAACGATAAACGTGGTGAAGTTTTCGATTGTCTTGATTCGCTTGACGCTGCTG` has a fluorescence intensity of 107 a.u.
With `TAAACAATACTTAAAAACGTGTTGGAACTTTTACGAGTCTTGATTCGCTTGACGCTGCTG` the fluorescence intensity was 151 a.u.

Block 3 — method: protein-binding microarray; form: double-stranded DNA, one strand shown; medium: in vitro; tested at: 940 nM top; notes: 60-bp whole probe; together with: salmon DNA 0.4 mg/ml; baseline: random background probes; direction: higher = stronger binding
Target: Interferon regulatory factor 5, full length, phosphomimetic (IRF5, Homo sapiens, UniProt Q13568-2, residues 1-514, S451D/S453D/S456D/S462D)
`GCCTAGCACTTAGATTTCAGTCTCGATCAGTGCTAGGTCTTGATTCGCTTGACGCTGCTG` — result for “fitted relative affinity”: 3.64 z-score.
`GCCTAGCACGACGGTATCGGTATAGGGACGTGCTAGGTCTTGATTCGCTTGACGCTGCTG`: “fitted relative affinity” 8.33 z-score.
`GCCTAGCACTCTGTTTTCTCCATGGAAGAGTGCTAGGTCTTGATTCGCTTGACGCTGCTG`: “fitted relative affinity” 1.43 z-score.
For `GCCTAGCACTCAGCTTACAATATAAAACTGTGCTAGGTCTTGATTCGCTTGACGCTGCTG`, “fitted relative affinity” read 0.266 z-score.

Mixed results
With `PhoQ, residues 284 288 289 292 302 303 AGGCYF` the fold induction was 4.24 (PhoP, residues 12 14 15 18 19 AQCLL (Escherichia coli, UniProt P23836); Sort-seq, refers to: YFP reporter; E. coli; PhoQ-PhoP variant library, together with: 10 µM Mg2+; baseline: high Mg2+ state, higher = stronger signaling).

For quick reference, copied from above (block 2):
With `GTCTTGTCTCATTGTCACAACACTTTCCCCACTTCAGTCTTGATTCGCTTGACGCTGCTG` the fluorescence intensity was 117 a.u.
